Experimental data gathered from unrelated publications.
Every numbered part comes from another study and shows a few of its results, in no order. Substitutions count along the parent as printed.

Study 1
Target: ABI1, truncated, D143A, DHFR fusion (Arabidopsis thaliana)
Technique: DHFR PCA, deep sequencing
Matrix: yeast
Notes: methotrexate growth selection, single substitutions
Added: (+)-ABA 1.4 µM
Reference: wild-type fitted maximum
Direction: higher = stronger binding
Measurement: relative binding score
Starting sequence: PYL1, truncated, DHFR fusion (Arabidopsis thaliana); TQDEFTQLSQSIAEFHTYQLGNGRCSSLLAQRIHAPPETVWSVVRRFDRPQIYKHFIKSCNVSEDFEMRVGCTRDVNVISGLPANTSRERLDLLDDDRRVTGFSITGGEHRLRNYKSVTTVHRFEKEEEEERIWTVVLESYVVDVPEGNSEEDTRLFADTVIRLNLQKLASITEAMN; partner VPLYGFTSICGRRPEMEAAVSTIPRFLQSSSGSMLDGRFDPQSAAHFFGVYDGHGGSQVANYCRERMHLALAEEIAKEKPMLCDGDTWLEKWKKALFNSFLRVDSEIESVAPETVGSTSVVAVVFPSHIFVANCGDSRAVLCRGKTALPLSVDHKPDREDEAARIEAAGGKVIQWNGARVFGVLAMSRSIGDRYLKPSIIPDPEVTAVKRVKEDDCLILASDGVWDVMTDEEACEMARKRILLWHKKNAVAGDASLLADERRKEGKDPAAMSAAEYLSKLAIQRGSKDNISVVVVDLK
Change = T160L; value = 37.7%
Change = R111W; value = 1.19%
Change = V121H; value = -8.66%
Change = T154S; value = -16.4%
Change = V121I; value = 32.5%
Change = P37G; value = -16.2%
Change = R46F; value = -50.9%
Change = V78Q; value = -9.83%
Change = T106R; value = 7.93%
Change = F56S; value = -6.17%
Change = L82H; value = 8.98%
Change = L166M; value = 16.7%
Change = F56K; value = -3.56%
Change = Q167H; value = 34.8%
Change = I133K; value = 44.9%
Change = I162D; value = -0.418%
Change = N177A; value = 64.9%
Change = R24Q; value = 77.7%
Change = Q31C; value = 0.976%

Study 2
Target: Prothrombin, mature alpha-thrombin (F2, Homo sapiens, UniProt P00734)
Technique: aptamer microarray, sandwich
Molecule type: DNA with 2'F-ANA
Matrix: in vitro
Concentration: 200 nM
Notes: whole 15-mer aptamer, many near background
Added: Cy3 exosite-II aptamer, 400 nM
Direction: higher = stronger binding
Measurement: mean fluorescence intensity
Oligonucleotide: GGTTGGTGTGGTTGG
Modification = 2'F-ANA at 4 6 7 13 15; value = 158 a.u.
Modification = 2'F-ANA at 2 5 15; value = 69 a.u.
Modification = 2'F-ANA at 8 9 11 12 13; value = 715 a.u.
Modification = 2'F-ANA at 7 8 12 13 14; value = 308 a.u.
Modification = 2'F-ANA at 4 5 6 7 9 10 11 14 15; value = 61.7 a.u.
Modification = 2'F-ANA at 2 6 8 9 11 13 15; value = 272 a.u.
Modification = 2'F-ANA at 1 4 6 7 8 11 12 13; value = 181 a.u.
Modification = 2'F-ANA at 2 3 4 6 7 9 11 12 14; value = 200 a.u.
Modification = 2'F-ANA at 2 3 4 6 7 9 10 15; value = 207 a.u.
Modification = 2'F-ANA at 1 2 3 4 5 8 11 13; value = 79.4 a.u.
Modification = 2'F-ANA at 1 5 6 7 8 10 13; value = 45.3 a.u.
Modification = 2'F-ANA at 1 7 8 9 10 12 15; value = 72.4 a.u.
Modification = 2'F-ANA at 1 3 5 9 11 12 13; value = 79.4 a.u.
Modification = 2'F-ANA at 1 3 4 5 7 9 11 12; value = 105 a.u.
Modification = 2'F-ANA at 1 3 4 7 8 9 11 12 14 15; value = 79.8 a.u.
Modification = 2'F-ANA at 2 3 5 7 12; value = 228 a.u.
Modification = 2'F-ANA at 2 6 8 10 13; value = 104 a.u.
Modification = 2'F-ANA at 1 2 3 5 8 9 11 12 13 15; value = 72.7 a.u.
Modification = 2'F-ANA at 1 4 5 9 10 13 15; value = 48.9 a.u.
Modification = 2'F-ANA at 1 2 4 5 6 7 11 12 15; value = 81.1 a.u.
Modification = 2'F-ANA at 2 3 6 7 8 9 11 12 13; value = 748 a.u.
Modification = 2'F-ANA at 1 2 3 4 5 6 7 8 10 11 12 13 14 15; value = 68.9 a.u.
Modification = 2'F-ANA at 2 5 6 8 11 14 15; value = 51.2 a.u.
Modification = 2'F-ANA at 2 3 5 7 8 9 10 13 14 15; value = 50.9 a.u.

Study 3
Target: Sal-like protein 4, full length isoform A (SALL4, Homo sapiens, UniProt Q9UJQ4, residues 1-1053)
Sequence of UniProt Q9UJQ4 (whole entry, looked up): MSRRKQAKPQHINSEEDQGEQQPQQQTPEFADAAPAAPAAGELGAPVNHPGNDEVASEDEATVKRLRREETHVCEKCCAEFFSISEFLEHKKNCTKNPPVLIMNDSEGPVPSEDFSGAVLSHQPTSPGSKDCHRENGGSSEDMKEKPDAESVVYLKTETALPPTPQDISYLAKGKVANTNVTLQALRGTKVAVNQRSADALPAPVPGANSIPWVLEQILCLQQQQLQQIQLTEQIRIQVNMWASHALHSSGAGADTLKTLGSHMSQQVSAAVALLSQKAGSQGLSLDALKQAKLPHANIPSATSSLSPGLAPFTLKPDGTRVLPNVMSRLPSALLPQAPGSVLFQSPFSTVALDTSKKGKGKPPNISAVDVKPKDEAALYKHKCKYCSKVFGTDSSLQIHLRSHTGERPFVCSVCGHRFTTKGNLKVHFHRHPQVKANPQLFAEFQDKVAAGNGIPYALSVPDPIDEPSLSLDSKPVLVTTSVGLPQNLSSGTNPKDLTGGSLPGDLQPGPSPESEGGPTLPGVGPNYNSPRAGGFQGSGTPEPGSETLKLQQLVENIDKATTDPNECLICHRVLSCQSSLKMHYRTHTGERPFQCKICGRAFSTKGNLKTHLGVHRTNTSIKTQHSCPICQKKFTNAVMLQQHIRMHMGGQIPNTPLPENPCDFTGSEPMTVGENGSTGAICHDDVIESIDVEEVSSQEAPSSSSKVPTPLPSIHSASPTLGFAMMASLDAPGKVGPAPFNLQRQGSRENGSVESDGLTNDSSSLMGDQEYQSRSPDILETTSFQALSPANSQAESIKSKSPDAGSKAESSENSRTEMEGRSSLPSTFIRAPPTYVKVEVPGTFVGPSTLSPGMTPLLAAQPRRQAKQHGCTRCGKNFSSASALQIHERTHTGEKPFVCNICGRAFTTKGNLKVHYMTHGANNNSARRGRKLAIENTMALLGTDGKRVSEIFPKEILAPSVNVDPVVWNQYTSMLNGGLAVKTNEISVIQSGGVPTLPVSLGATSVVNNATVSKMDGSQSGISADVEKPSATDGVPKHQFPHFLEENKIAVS
Technique: universal PBM
Molecule type: double-stranded DNA, one strand shown
Matrix: in vitro
Concentration: 600 nM
Notes: 8-mer, flanks averaged, mean of replicates
Direction: higher = stronger binding
Measurement: E-score
Oligonucleotide = AGGCCGTA; value = -0.0918
Oligonucleotide = CGACCGGA; value = -0.373
Oligonucleotide = CTCAGTGA; value = 0.0172
Oligonucleotide = ATGGCCCG; value = -0.286
Oligonucleotide = ATAGCTTA; value = 0.22
Oligonucleotide = ATAAATGC; value = 0.255
Oligonucleotide = ACTGCTCA; value = -0.00469
Oligonucleotide = CAAATGCG; value = -0.00468
Oligonucleotide = AGCCGATC; value = -0.025
Oligonucleotide = GTTACGAA; value = 0.179
Oligonucleotide = ATGCGGAG; value = -0.253
Oligonucleotide = ATGTACCC; value = 0.029
Oligonucleotide = CTTACAAA; value = 0.13
Oligonucleotide = GCGATTAC; value = -0.0716
Oligonucleotide = CAAAAGCA; value = -0.0067
Oligonucleotide = CATCGGGC; value = -0.352
Oligonucleotide = GAGGCGTA; value = -0.0518
Oligonucleotide = CAAAACAG; value = 0.102
Oligonucleotide = TCCCACGA; value = -0.141
Oligonucleotide = GGGCAAGA; value = -0.0602
Oligonucleotide = CTTTCGTC; value = 0.0416
Oligonucleotide = ATGTACAC; value = 0.187
Oligonucleotide = CCGGCAAA; value = -0.104
Oligonucleotide = AGACTTGA; value = 0.0519
Oligonucleotide = AAGTGTGA; value = 0.0573

Study 4
Target: CCNA1, cyclin fold, Cln2 fusion (human)
Technique: yeast growth competition, sequencing
Matrix: yeast
Notes: strong parent motif
Reference: not given
Direction: higher = stronger binding
Measurement: normalised enrichment score
Starting sequence: RBL2 docking peptide (human); STTRRRLFVENDS; partner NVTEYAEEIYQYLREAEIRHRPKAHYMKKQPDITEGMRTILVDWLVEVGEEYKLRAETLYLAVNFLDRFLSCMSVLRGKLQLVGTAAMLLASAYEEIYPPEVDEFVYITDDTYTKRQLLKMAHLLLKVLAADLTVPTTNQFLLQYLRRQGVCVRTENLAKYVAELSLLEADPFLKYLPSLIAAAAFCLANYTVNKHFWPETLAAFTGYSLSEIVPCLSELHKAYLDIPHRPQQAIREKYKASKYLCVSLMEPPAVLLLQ
Change = STTRRRLFVENDT [S13T]; value = 0.227
Change = STTTRRLFVENDS [R4T]; value = 0.116
Change = STTRRRLFVYNDS [E10Y]; value = 0.207
Change = STTRRRLSVENDS [F8S]; value = 0.44
Change = STTRRRLFNENDS [V9N]; value = 0.997
Change = STTRRRLFVPNDS [E10P]; value = 1.01
Change = STTRRRLFVENQS [D12Q]; value = 0.473
Change = STTRRRLYVENDS [F8Y]; value = 0.349
Change = STTRRRPFVENDS [L7P]; value = 0.443
Change = STTRRRLFVEHDS [N11H]; value = 0.27
Change = STTRRHLFVENDS [R6H]; value = 0.239
Change = STTRRRLFVTNDS [E10T]; value = 0.096
Change = STTRRRLWVENDS [F8W]; value = 0.261
Change = STTRARAFVENDS [R5A L7A]; value = 0.0521
Change = STTRRRLFVEQDS [N11Q]; value = 0.53
Change = STTRGRLFVENDS [R5G]; value = 0.0887
Change = STTRRFLFVENDS [R6F]; value = 0.726
Change = PTTRRRLFVENDS [S1P]; value = 0.479
Change = STTRRRSFVENDS [L7S]; value = 0.278
Change = STDRRRLFVENDS [T3D]; value = 0.101
Change = VTTRRRLFVENDS [S1V]; value = 0.618
Change = STTRRRLFVVNDS [E10V]; value = 0.651
Change = TTTRRRLFVENDS [S1T]; value = 0.807
Change = SETRRRLFVENDS [T2E]; value = 0.62
Change = STTRRRDFVENDS [L7D]; value = 0.485

Some of these lines once more (study 1):
Change = R111W; value = 1.19%
Change = V121H; value = -8.66%
Change = T154S; value = -16.4%
Change = V121I; value = 32.5%
Change = P37G; value = -16.2%
Change = R46F; value = -50.9%
Change = V78Q; value = -9.83%
Change = T106R; value = 7.93%
Change = F56S; value = -6.17%
Change = L82H; value = 8.98%
Change = L166M; value = 16.7%
Change = F56K; value = -3.56%
Change = Q167H; value = 34.8%
Change = I133K; value = 44.9%
Change = I162D; value = -0.418%
Change = N177A; value = 64.9%
